# Results of several laboratories.
# Parts stem from different laboratories: compare values within a part only. Positions count from the first letter of the parent shown.

# Series 1
# Target: Sal-like protein 4, full length isoform B (SALL4, Homo sapiens, UniProt Q9UJQ4-2, residues 1-616)
# Method: universal PBM
# Form: double-stranded DNA, one strand shown
# Medium: in vitro
# Concentration: not given
# Notes: 8-mer, flanks averaged, mean of replicates
# Direction: higher = stronger binding
Sequence,E-score
GTGGATGA,0.0292
CGCGTGTC,-0.157
CCGTCCCG,-0.273
CGCTACTC,-0.00175
ATTTTTAG,0.159
AAGTTGAA,0.0548
CGCCTGCA,-0.282
CTAGACGA,-0.0374

# Series 2
# Target: Histone acetyltransferase KAT6A, both winged helices, GST fusion (KAT6A, Homo sapiens, UniProt Q92794, residues 1-181)
# Method: protein binding microarray
# Form: double-stranded DNA, one strand shown
# Medium: in vitro
# Concentration: not given
# Notes: 8-mer, flanks averaged, mean of 2 arrays, mostly near background
# Baseline: not given
# Direction: higher = stronger binding
# Residues (chain): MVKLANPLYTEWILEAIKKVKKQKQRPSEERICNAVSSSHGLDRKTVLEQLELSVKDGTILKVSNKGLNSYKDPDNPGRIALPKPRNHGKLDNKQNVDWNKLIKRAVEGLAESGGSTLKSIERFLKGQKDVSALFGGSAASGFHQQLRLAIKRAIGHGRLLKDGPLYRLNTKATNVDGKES
Sequence,E-score
ATTCAAGC,0.0917
AGATAAAC,0.0528
AGATAATC,-0.0437
ATTTGTTG,-0.071
GAAGCATA,-0.153
GAGCAAGA,-0.0989
AACATCCG,0.204
CTAAACTA,-0.172
AGCTGTTG,-0.0893

# Series 3
# Target: ABI1, truncated, D143A, DHFR fusion (Arabidopsis thaliana)
# Method: DHFR PCA, deep sequencing
# Medium: yeast
# Notes: methotrexate growth selection, single substitutions
# Added: (+)-ABA 1.4 µM
# Baseline: wild-type fitted maximum
# Direction: higher = stronger binding
# Starting sequence: PYL1, truncated, DHFR fusion (Arabidopsis thaliana); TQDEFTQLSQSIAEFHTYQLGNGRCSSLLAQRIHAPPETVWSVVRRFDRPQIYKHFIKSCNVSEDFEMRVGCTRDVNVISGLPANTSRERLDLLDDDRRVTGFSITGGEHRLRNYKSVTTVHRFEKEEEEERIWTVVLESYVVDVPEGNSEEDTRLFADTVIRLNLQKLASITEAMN
Variant,relative binding score [%]
T73S,29.7
F124L,73
L20Q,65.5
L94M,40.8
E129R,44.9
P37F,-3.67
G148T,2.96

# Single results of other studies
Substance,target,assay,system,conditions,scale,measurement,result
"PhoQ, residues 284 288 289 292 302 303 AQGLTV","PhoP, residues 12 14 15 18 19 HLGGL (Escherichia coli, UniProt P23836)","Sort-seq, item: YFP reporter",E. coli,"PhoQ-PhoP variant library, added: 10 µM Mg2+","baseline: high Mg2+ state, higher = stronger signaling",fold induction,0.969

# A few entries again (series 1):
Sequence,E-score
CGCTACTC,-0.00175
ATTTTTAG,0.159
AAGTTGAA,0.0548
CGCCTGCA,-0.282
